Measured values pooled from the literature.
“And” joins repeats or separate records; there may be more than shown.
Target: Myotonin-protein kinase (DMPK, Homo sapiens, UniProt Q09013)

| SMILES | test | conditions | how to read | endpoint | result |
| --- | --- | --- | --- | --- | --- |
| COc1cc(Nc2nccc(-c3cnn4nc(OC)ccc34)n2)cc(C(F)(F)F)c1 | binding, competition with immobilised ligand | 1 µM |  | remaining binding | 100% |
| COCC12C(=O)NC3C4(C(OC)CC1O)C1CC5(O)C(OC)C(O)C(OC(C)=O)(C1C5OC(=O)c1ccccc1)C3(O)C(OC)C24 (centres unmarked) | kinase activity, inhibitor, ProQinase kinase profiling | 25 µM | reference: control | remaining activity | 112% and 106% |
| NC(=O)C[C@H]1CCc2sc3ncnc(O[C@H]4CC[C@H](N5CCOCC5)CC4)c3c21 | enzyme activity, inhibitor | 10 µM |  | inhibition | 2% |
| C=CC(=O)N1CCCC(n2c(=O)c3ncccc3n(Cc3ccc(Oc4ccccc4)cc3)c2=O)C1 (centres unmarked) | cell-free assay, competition with immobilised ligand | 1 µM |  | remaining binding | 100% |
| O=C=[N][Ru-4]123([n]4c5ccc(O)cc5c5c6c(c7cc(F)c[n+]1c7c54)C(=O)NC6=O)[S+]1CC[S+]2CC[S+]3CC1 (centres unmarked) | enzyme activity | 100 nM, human enzyme, with: 10 µM ATP | reference: untreated | remaining activity | 110% |
| O=C(Cc1ccc(OCc2ccccc2)cc1)NC1(C(=O)O)CCN(C(=O)c2ccc(-c3cccc(Cl)c3)cc2)CC1 | enzyme activity, inhibitor | 10 µM |  | activity vs control | 89% |
| Cc1cnc2nc1Nc1cccc(c1)COC/C=C/COCc1cc(ccc1OCCN1CCOCC1)N2 | binding | 0.1 µM |  | remaining binding | 100% |
| COc1c(Cl)cccc1Nc1c(-c2ccncc2C#C[C@@]2(C)CCCN2C(=O)/C=C/CN(C)C)[nH]c2c1C(=O)NCC2 | binding, competition with immobilised ligand | 3 µM |  | remaining binding | 98% |
| COc1ccc(NC(=O)Nc2ccc3c(c2)C(=O)N(C(C)CO)CC(C)C(CN(C)Cc2ccc4c(c2)OCO4)O3)cc1 (centres unmarked) | kinase activity, KinaseProfiler | 0.03 µM, species human | reference: control | remaining activity | 111% |
| CN1CC[C@@H](COc2cnc(C#N)cc2-c2ccn3nc(NC(=O)C4CC4)cc3c2)C1 | inhibitor, KinaseProfiler panel | 1 µM |  | inhibition | 0% |
| Cc1ccc(-c2c(/C=C(\C#N)C(=O)NC(C)C)n(CCCO)c3ncnc(N)c23)cc1 | cell-free assay, competition with immobilised ligand | 1 µM |  | remaining binding | 100% |
| Nc1ncc(-c2cc(-c3cnn(CC(F)(F)F)c3)ncc2F)nc1C(=O)NC1CNCC(F)C1 (centres unmarked) | enzyme activity | 1 µM | reference: DMSO control | remaining activity | 93.3% |
| COc1c(OCCCN2CCOCC2)ccc2c1N=C(NC(=O)c1cnc(N)nc1)N1CCN=C21 | kinase activity, inhibitor | 1 µM | reference: untreated control | remaining activity | 111% |
| CCn1cc(C(=O)O)c(=O)c2c(N)c(F)c(NC3CCCCC3)cc21 | kinase activity | 0.1 µM, with: ATP at Km |  | inhibition | -9.7% |

Some of these lines once more:
| SMILES | test | conditions | how to read | endpoint | result |
| --- | --- | --- | --- | --- | --- |
| Nc1ncc(-c2cc(-c3cnn(CC(F)(F)F)c3)ncc2F)nc1C(=O)NC1CNCC(F)C1 (centres unmarked) | enzyme activity | 1 µM | reference: DMSO control | remaining activity | 93.3% |
